Results gathered from unrelated publications.

Structure (SMILES)	organism	test	system	setting	MIC
CC1(C)SC2C(NC(=O)C(NC(=O)C3=C(O)C(Cc4ccc(F)cc4)NC3=O)c3ccccc3)C(=O)N2C1C(=O)O (centres unmarked)	Escherichia coli	broth microdilution	isolate IU, CTX-M-14, TEM-1	no clavulanic acid	> 200 µg/mL
Cc1c2ccncc2c(C)c2c1[nH]c1ccccc12	Candidozyma auris	inhibitor	277	24 h	128 µg/mL
CC(C)C1NC(=O)C(C(=O)NC(C(=O)NC2C(=O)N3C2SC(C)(C)C3C(=O)O)c2ccccc2)=C1O (centres unmarked)	Escherichia coli	broth microdilution	Keio mutant JW2142-1		25 µg/mL
O/N=c1\cc2n(-c3ccc(Cl)cc3)c3ccccc3nc-2cc1Nc1ccc(Cl)cc1	Neisseria gonorrhoeae	bacterial growth	700825, streptomycin-resistant	24 h	3.75 µM
CC1(C)SC2C(NC(=O)C(NC(=O)C3=C(O)C(Cc4ccsc4)NC3=O)c3ccccc3)C(=O)N2C1C(=O)O (centres unmarked)	Escherichia coli		ATCC 35218, low-level TEM-1	without clavulanic acid	> 200 µg/mL
CS(=O)(=O)Nc1ncn(-c2cc(F)c(COc3ccc(OS(=O)(=O)F)cc3)c(F)c2)n1	Mycobacterium africanum				0.02 µM
CC[C@H](C)[C@H](NC(=O)[C@H](CCCNC(=N)N)NC(=O)[C@H](Cc1c[nH]c2ccccc12)NC(=O)[C@H](CCCNC(=N)N)NC(=O)[C@H](Cc1c[nH]c2ccccc12)NC(=O)[C@H](Cc1c[nH]c2ccccc12)NC(=O)[C@H](Cc1c[nH]c2ccccc12)NC(=O)[C@H](CCCNC(=N)N)NC(=O)[C@H](Cc1c[nH]c2ccccc12)NC(=O)[C@H](CCCNC(=N)N)NC(=O)CN)C(N)=O	Candida tropicalis	broth microdilution	CGMCC 2.192, RPMI 1640-MOPS	48 h, 30 °C	4 µM
CC1(C)SC2C(NC(=O)C(NC(=O)C3=C(O)C4(CC4)NC3=O)c3ccccc3)C(=O)N2C1C(=O)O (centres unmarked)	Escherichia coli	broth microdilution	Keio mutant JW0587-1	18 h, enterobactin-related gene	25 µg/mL
CC(C)C[C@H](NC(=O)[C@H](CCCCN)NC(=O)[C@H](CO)NC(=O)[C@H](CC(C)C)NC(=O)[C@H](CC(C)C)NC(=O)CNC(=O)[C@H](CC(C)C)NC(=O)[C@H](CCCCN)NC(=O)[C@H](CC(C)C)NC(=O)[C@H](CC(C)C)NC(=O)[C@H](CC(C)C)NC(=O)CNC(=O)[C@H](CO)NC(=O)[C@H](Cc1c[nH]c2ccccc12)NC(=O)[C@@H](N)CCCCN)C(N)=O	Candida tropicalis	broth microdilution	ATCC 13803	44 h, 37 °C	> 8 µM
N=C(N)NCCC[C@H](NC(=O)CN)C(=O)N[C@@H](Cc1c[nH]c2ccccc12)C(=O)N[C@@H](CCCNC(=N)N)C(=O)N[C@@H](Cc1c[nH]c2ccccc12)C(=O)N[C@@H](Cc1c[nH]c2ccccc12)C(=O)N[C@@H](Cc1c[nH]c2ccccc12)C(=O)N[C@@H](CCCNC(=N)N)C(=O)N[C@@H](Cc1c[nH]c2ccccc12)C(=O)N[C@@H](CCCNC(=N)N)C(=O)N[C@@H](Cc1c[nH]c2ccccc12)C(N)=O	Candida albicans	broth microdilution	CGMCC 2.209, RPMI 1640-MOPS	48 h, 30 °C, together with: NaCl 150 mM	32 µM
C[C@H](NC(=O)CO/N=c1\cc2n(-c3ccc(Cl)cc3)c3ccccc3nc-2cc1Nc1ccc(Cl)cc1)C(=O)O	Neisseria gonorrhoeae	bacterial growth	1130991, multidrug-resistant	24 h	3.75 µM
CC(C)[C@H](NC(=O)[C@H](CCCNC(=N)N)NC(=O)[C@H](Cc1c[nH]c2ccccc12)NC(=O)[C@H](CCCNC(=N)N)NC(=O)[C@H](Cc1c[nH]c2ccccc12)NC(=O)[C@H](Cc1c[nH]c2ccccc12)NC(=O)[C@H](Cc1c[nH]c2ccccc12)NC(=O)[C@H](CCCNC(=N)N)NC(=O)[C@H](Cc1c[nH]c2ccccc12)NC(=O)[C@@H](N)CCCNC(=N)N)C(N)=O	Candida albicans	broth microdilution	CGMCC 2.209, RPMI 1640-MOPS	48 h, 30 °C, together with: FeCl3 4 µM	32 µM
CC[C@H](C)[C@H](NC(=O)[C@H](CC(N)=O)NC(=O)[C@H](Cc1ccccc1)NC(=O)[C@H](CCCNC(=N)N)NC(=O)[C@H](CCCNC(=N)N)NC(=O)[C@@H](N)CCCCN)C(=O)N[C@@H](CCCCN)C(=O)N[C@@H](CC(C)C)C(=O)N[C@@H](Cc1c[nH]c2ccccc12)C(=O)N[C@@H](CCCCN)C(=O)N[C@H](C(=O)N[C@@H](Cc1ccccc1)C(=O)O)[C@@H](C)O	Salmonella enterica subsp. enterica				200 µg/mL
N=C(N)c1ccc(OCc2ccc(-c3ccccc3)cc2COc2ccc(C(=N)N)cc2)cc1	Escherichia coli		BW25113 mcr-1	compound alone	> 100 µg/mL
O=C(CO/N=c1\cc2n(-c3ccc(Cl)cc3)c3ccccc3nc-2cc1Nc1ccc(Cl)cc1)NCc1ccc(C(F)(F)F)cc1	Neisseria gonorrhoeae	bacterial growth	1130991, multidrug-resistant	24 h	> 30 µM
CC[C@H](C)[C@H](NC(=O)[C@H](CCCNC(=N)N)NC(=O)[C@H](Cc1c[nH]c2ccccc12)NC(=O)[C@H](CCCNC(=N)N)NC(=O)[C@H](Cc1c[nH]c2ccccc12)NC(=O)[C@H](Cc1c[nH]c2ccccc12)NC(=O)[C@H](Cc1c[nH]c2ccccc12)NC(=O)[C@H](CCCNC(=N)N)NC(=O)[C@H](Cc1c[nH]c2ccccc12)NC(=O)[C@@H](N)CCCNC(=N)N)C(N)=O	Candida albicans	broth microdilution	14936, RPMI 1640-MOPS	48 h, 30 °C	8 µM
CC[C@H](C)[C@H](NC(=O)[C@H](CCCCN)NC(=O)[C@@H](NC(=O)[C@H](Cc1ccc(O)cc1)NC(=O)[C@H](CCCCN)NC(=O)[C@H](CCCCN)NC(=O)CNC(=O)[C@H](CCCCN)NC(=O)[C@@H](NC(=O)[C@H](C)NC(=O)[C@H](CC(C)C)NC(=O)[C@H](Cc1c[nH]c2ccccc12)NC(=O)CNC(=O)[C@@H](NC(=O)[C@H](Cc1ccccc1)NC(=O)[C@H](CCCCN)NC(=O)[C@H](CC(C)C)NC(=O)[C@H](Cc1ccccc1)NC(=O)[C@H](C)NC(=O)CNC(=O)[C@@H](N)CCSC)C(C)C)[C@@H](C)O)C(C)C)C(=O)N[C@@H](C)C(=O)N[C@@H](Cc1c[nH]c2ccccc12)C(=O)N[C@@H](CC(=O)O)C(=O)N[C@@H](Cc1c[nH]cn1)C(=O)N[C@@H](CCCCN)C(=O)NCC(=O)N[C@H](C(=O)N[C@H](C(=O)N[C@@H](CCSC)C(=O)N[C@@H](CCCCN)C(=O)N[C@@H](Cc1c[nH]c2ccccc12)C(=O)N[C@@H](CC(C)C)C(=O)N[C@@H](CC(N)=O)C(=O)N[C@@H](C)C(=O)NCC(=O)N[C@@H](CCC(N)=O)C(=O)N[C@H](C(=O)N[C@@H](Cc1ccccc1)C(=O)N[C@H](C(=O)N[C@@H](Cc1c[nH]c2ccccc12)C(=O)N[C@H](C(=O)N[C@@H](Cc1ccc(O)cc1)C(=O)N[C@@H](CCC(=O)O)C(=O)N[C@@H](CCC(N)=O)C(=O)N[C@H](C(=O)N[C@@H](CCCCN)C(=O)N[C@@H](CCCCN)C(=O)N[C@@H](CC(C)C)C(=O)N[C@@H](Cc1c[nH]c2ccccc12)C(=O)N[C@H](C(=O)O)[C@@H](C)O)[C@@H](C)CC)C(C)C)[C@@H](C)O)[C@@H](C)O)[C@@H](C)CC)[C@@H](C)O	Streptococcus agalactiae	broth microdilution		37 °C	62.5 µg/mL
CC[C@H](C)[C@H](NC(=O)[C@H](C)NC(=O)[C@H](CCCCN)NC(=O)[C@H](CC(C)C)NC(=O)[C@H](C)NC(=O)[C@@H](NC(=O)[C@H](Cc1c[nH]cn1)NC(=O)[C@H](CC(C)C)NC(=O)[C@@H](NC(=O)[C@@H](NC(=O)[C@H](CCCCN)NC(=O)[C@H](C)NC(=O)[C@H](C)NC(=O)[C@H](CO)NC(=O)[C@H](CCCCN)NC(=O)[C@H](Cc1ccccc1)NC(=O)[C@@H](NC(=O)[C@H](CCCCN)NC(=O)[C@H](CC(C)C)NC(=O)[C@H](Cc1ccccc1)NC(=O)[C@H](CO)NC(=O)[C@H](CCCCN)NC(=O)[C@H](Cc1c[nH]c2ccccc12)NC(=O)[C@H](CCCCN)NC(C)=O)[C@@H](C)O)[C@@H](C)O)C(C)C)[C@@H](C)O)C(=O)N[C@@H](CO)C(=O)N[C@@H](CO)C(N)=O	Klebsiella pneumoniae		ESBL ATCC 700603		8 µg/mL
C=CCO/N=c1\cc2n(-c3ccc(Cl)cc3)c3ccccc3nc-2cc1Nc1ccc(Cl)cc1	Neisseria gonorrhoeae	bacterial growth	700825, streptomycin-resistant	24 h	> 30 µM
N=C(N)NCCC[C@H](NC(=O)[C@H](Cc1c[nH]c2ccccc12)NC(=O)[C@H](CCCNC(=N)N)NC(=O)[C@H](Cc1c[nH]c2ccccc12)NC(=O)[C@H](Cc1c[nH]c2ccccc12)NC(=O)[C@H](Cc1c[nH]c2ccccc12)NC(=O)[C@H](CCCNC(=N)N)NC(=O)[C@H](Cc1c[nH]c2ccccc12)NC(=O)[C@@H](N)CCCNC(=N)N)C(=O)N[C@@H](Cc1c[nH]c2ccccc12)C(N)=O	Candida albicans	broth microdilution	CGMCC 2.209, RPMI 1640-MOPS	48 h, 30 °C, together with: ZnCl2 8 µM	16 µM

For quick reference, copied from above:
Structure (SMILES)	organism	test	system	setting	MIC
N=C(N)c1ccc(OCc2ccc(-c3ccccc3)cc2COc2ccc(C(=N)N)cc2)cc1	Escherichia coli		BW25113 mcr-1	compound alone	> 100 µg/mL
O=C(CO/N=c1\cc2n(-c3ccc(Cl)cc3)c3ccccc3nc-2cc1Nc1ccc(Cl)cc1)NCc1ccc(C(F)(F)F)cc1	Neisseria gonorrhoeae	bacterial growth	1130991, multidrug-resistant	24 h	> 30 µM
